Assay results pooled from the literature.
A part holds a random share of what one study measured. Several values in a cell are separate wells, animals, samples, runs or records.
UniProt Q8NEV4, sequence (whole entry, looked up): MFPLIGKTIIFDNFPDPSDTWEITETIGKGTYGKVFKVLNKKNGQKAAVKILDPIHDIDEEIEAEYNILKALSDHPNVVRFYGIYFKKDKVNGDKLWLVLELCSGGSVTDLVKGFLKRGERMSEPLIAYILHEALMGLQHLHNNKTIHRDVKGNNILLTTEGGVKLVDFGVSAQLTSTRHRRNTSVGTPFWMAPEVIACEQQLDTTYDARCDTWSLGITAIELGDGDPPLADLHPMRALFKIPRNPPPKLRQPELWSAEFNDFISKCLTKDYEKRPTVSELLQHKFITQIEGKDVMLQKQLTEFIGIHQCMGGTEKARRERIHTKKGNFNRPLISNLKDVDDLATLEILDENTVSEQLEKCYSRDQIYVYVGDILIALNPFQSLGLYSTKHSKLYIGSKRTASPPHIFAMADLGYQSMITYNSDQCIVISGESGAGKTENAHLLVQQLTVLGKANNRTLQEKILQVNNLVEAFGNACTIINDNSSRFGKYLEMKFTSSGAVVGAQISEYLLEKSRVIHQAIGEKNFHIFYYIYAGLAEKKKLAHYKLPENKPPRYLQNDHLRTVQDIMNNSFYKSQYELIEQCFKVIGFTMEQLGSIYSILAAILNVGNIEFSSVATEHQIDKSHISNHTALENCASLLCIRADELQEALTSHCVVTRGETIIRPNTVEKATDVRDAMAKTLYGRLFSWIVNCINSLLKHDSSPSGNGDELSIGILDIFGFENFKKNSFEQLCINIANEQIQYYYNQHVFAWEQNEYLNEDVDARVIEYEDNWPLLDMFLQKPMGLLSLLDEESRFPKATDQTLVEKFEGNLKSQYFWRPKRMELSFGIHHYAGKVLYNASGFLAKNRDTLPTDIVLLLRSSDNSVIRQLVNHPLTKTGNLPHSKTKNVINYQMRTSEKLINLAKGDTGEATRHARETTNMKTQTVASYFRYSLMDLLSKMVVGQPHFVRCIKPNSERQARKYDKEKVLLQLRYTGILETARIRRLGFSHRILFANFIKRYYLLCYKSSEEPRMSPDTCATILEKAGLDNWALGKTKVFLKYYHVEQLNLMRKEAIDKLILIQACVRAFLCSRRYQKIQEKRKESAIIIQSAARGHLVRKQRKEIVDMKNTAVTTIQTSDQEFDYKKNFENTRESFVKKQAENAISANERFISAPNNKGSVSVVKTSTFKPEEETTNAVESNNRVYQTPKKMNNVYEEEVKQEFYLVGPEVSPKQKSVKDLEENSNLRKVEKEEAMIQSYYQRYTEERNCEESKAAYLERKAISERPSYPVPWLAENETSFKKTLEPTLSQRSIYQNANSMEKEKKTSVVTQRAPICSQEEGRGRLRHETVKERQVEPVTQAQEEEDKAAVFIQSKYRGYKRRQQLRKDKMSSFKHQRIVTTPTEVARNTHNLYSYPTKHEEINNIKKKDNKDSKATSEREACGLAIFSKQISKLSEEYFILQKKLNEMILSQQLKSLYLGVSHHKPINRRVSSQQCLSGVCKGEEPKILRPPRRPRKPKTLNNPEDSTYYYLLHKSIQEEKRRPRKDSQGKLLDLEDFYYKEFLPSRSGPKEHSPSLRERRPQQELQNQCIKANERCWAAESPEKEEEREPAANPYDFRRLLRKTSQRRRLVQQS
UniProt P49137, sequence (whole entry, looked up): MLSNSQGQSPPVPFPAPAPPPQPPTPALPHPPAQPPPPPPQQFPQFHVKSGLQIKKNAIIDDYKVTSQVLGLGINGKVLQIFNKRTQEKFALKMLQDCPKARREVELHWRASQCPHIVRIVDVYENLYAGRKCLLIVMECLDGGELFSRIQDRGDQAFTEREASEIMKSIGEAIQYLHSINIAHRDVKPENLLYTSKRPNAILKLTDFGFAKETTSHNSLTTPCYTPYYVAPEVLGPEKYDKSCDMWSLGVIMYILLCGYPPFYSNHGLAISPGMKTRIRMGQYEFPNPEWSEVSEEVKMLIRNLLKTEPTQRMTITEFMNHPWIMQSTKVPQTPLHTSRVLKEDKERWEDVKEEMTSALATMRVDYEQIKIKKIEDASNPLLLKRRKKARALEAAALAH

Set 1
Structure (SMILES): CO[C@H]1CC[C@H](CNc2ccc(S(=O)(=O)NC(=O)c3ccc(N4CCN(CC5=C(c6ccc(Cl)cc6)CC(C)(C)CC5)CC4)cc3Oc3cnc4[nH]ccc4c3)cc2[N+](=O)[O-])CC1
Concentration: 1 µM
The remaining binding was 90% (SIK1 (Homo sapiens, UniProt P57059); competition binding).
The remaining binding was 100% (INSRR (Homo sapiens, UniProt P14616); cell-free assay, competition with immobilised ligand).
For MAPKAPK2 (Homo sapiens, UniProt P49137); cell-free assay, competition with immobilised ligand: remaining binding read 93%.
For EIF2AK2 (Homo sapiens, UniProt P19525); cell-free assay, competition with immobilised ligand: remaining binding read 90%.
Myosin-IIIa (MYO3A, Homo sapiens, UniProt Q8NEV4); binding, competition with immobilised ligand — remaining binding: 82%.
FLT3 (Homo sapiens, UniProt P36888, ITD); cell-free assay, competition with immobilised ligand — remaining binding: 86%.
It gave 100% for remaining binding (EGFR (Homo sapiens, UniProt P00533, del747-752/P753S); cell-free assay, competition with immobilised ligand).
It gave 80% for remaining binding (ERBB4 (Homo sapiens, UniProt Q15303); cell-free assay, competition with immobilised ligand).
STK39 (Homo sapiens, UniProt Q9UEW8); cell-free assay, competition with immobilised ligand — remaining binding: 100%.
The remaining binding was 71% (Tyrosine-protein kinase ABL1, phosphorylated (ABL1, Homo sapiens, UniProt P00519); cell-free assay, competition with immobilised ligand).
It gave 85% for remaining binding (FLT1 (Homo sapiens, UniProt P17948); cell-free assay, competition with immobilised ligand).
For TEC (Homo sapiens, UniProt P42680); cell-free assay, competition with immobilised ligand: remaining binding read 74%.
CDK15 (Homo sapiens, UniProt Q96Q40); cell-free assay, competition with immobilised ligand — remaining binding: 100%.
LYN (Homo sapiens, UniProt P07948); cell-free assay, competition with immobilised ligand — remaining binding: 74%.
PIK3C3 (Homo sapiens, UniProt Q8NEB9); cell-free assay, competition with immobilised ligand — remaining binding: 100%.

Set 2
Target: DNA polymerase theta, ATPase domain (POLQ, Homo sapiens, UniProt O75417)
UniProt O75417, sequence (whole entry, unmodified, looked up): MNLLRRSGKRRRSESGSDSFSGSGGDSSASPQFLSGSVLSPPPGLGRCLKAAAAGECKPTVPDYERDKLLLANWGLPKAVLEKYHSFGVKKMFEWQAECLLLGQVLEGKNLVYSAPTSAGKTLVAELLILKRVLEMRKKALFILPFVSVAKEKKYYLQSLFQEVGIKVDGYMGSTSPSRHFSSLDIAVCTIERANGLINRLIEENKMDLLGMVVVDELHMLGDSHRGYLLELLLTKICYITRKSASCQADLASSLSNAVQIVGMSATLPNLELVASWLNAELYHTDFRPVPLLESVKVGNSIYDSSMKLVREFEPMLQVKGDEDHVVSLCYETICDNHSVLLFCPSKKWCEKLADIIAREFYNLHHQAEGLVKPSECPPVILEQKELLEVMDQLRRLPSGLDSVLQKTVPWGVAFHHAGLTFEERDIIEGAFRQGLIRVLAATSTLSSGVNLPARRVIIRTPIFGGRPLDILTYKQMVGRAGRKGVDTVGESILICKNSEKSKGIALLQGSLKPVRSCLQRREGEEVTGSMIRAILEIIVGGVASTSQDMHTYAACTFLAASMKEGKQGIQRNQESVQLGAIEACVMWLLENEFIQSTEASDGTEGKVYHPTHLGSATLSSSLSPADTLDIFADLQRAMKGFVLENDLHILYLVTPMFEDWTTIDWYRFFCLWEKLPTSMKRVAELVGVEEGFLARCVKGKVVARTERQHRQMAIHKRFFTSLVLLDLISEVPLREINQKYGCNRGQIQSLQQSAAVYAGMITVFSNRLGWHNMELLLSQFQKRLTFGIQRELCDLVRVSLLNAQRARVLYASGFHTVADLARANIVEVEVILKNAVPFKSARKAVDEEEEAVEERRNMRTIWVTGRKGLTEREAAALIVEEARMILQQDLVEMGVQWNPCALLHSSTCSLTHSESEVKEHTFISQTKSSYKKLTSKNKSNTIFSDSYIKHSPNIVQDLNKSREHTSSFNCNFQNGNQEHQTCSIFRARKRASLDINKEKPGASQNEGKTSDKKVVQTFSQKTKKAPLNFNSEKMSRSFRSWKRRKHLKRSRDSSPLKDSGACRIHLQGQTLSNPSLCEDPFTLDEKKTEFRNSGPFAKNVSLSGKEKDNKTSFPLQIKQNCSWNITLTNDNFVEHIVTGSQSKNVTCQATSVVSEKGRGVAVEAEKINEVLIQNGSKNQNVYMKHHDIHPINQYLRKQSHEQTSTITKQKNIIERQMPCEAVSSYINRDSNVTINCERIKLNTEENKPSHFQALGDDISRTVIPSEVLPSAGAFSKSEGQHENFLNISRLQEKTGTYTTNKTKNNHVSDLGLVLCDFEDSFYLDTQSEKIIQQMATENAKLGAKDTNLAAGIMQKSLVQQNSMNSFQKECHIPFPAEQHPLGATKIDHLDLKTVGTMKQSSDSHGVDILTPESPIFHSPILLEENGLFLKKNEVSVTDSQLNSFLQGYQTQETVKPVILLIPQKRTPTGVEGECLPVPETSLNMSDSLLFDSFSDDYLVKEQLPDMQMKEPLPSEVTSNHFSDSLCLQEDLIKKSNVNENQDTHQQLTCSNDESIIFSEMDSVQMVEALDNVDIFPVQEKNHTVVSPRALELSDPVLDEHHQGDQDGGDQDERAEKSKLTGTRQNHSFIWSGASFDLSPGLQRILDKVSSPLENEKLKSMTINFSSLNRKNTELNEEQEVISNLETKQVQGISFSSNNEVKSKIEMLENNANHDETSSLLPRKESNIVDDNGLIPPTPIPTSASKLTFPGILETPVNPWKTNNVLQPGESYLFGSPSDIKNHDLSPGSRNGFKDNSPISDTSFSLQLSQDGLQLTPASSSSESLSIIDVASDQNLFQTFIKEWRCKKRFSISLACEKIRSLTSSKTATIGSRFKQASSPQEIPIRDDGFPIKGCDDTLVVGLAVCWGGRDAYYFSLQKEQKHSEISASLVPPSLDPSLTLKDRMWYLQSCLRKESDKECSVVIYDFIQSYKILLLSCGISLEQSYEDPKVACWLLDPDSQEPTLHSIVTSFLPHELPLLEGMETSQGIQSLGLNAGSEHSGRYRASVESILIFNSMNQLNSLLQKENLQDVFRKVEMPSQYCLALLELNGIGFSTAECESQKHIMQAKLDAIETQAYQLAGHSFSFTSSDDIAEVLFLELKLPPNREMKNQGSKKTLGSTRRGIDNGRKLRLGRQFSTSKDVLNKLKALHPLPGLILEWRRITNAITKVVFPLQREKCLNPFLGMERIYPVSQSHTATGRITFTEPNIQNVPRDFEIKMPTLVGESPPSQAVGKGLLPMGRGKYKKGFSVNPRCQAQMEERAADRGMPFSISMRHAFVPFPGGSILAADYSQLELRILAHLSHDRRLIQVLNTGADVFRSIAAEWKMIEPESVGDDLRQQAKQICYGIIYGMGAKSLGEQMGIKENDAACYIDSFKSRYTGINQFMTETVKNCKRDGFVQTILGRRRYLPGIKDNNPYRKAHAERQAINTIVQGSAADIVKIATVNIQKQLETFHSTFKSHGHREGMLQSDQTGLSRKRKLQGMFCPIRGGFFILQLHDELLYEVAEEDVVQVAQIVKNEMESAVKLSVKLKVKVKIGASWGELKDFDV
Observed: enzyme activity
Action: inhibitor
Concentration: 77 µM
Baseline: untreated
For COc1ccc(C(C)=O)c(O)c1, the remaining activity was 101%.
O=C1C(=O)N(Cc2ccc(Cl)c(Cl)c2)c2ccccc21 has a remaining activity of 100%.
Cc1nc(N(C)C(=O)Cc2ccc(-c3ccccn3)cc2)sc1S(N)(=O)=O gave a remaining activity of 100%.
CC(=O)OCC(=O)[C@@]12OC(C)(C)O[C@@H]1C[C@H]1[C@@H]3C[C@H](F)C4=CC(=O)C=C[C@]4(C)[C@@]3(F)[C@@H](O)C[C@@]12C has a remaining activity of 90.4% and 101%.
The remaining activity of CCCc1cc(C(N)=S)ccn1 is reported as 91.4%.
For COc1cc(NC(C)CCCN)c2ncccc2c1 (stereo not shown), the remaining activity was 89.4% and 97%.
CC(=O)CC(c1ccc([N+](=O)[O-])cc1)c1c(O)c2ccccc2oc1=O (stereo not shown) has a remaining activity of 86.6%.
For CC(C)CCNC(=O)[C@H](CC(C)C)NC(=O)[C@H]1O[C@@H]1C(=O)O, the remaining activity was 94.5%.
With CCCCC1(COC(=O)CCC(=O)O)C(=O)N(c2ccccc2)N(c2ccccc2)C1=O the remaining activity was 111%.
CCCCC[C@H](O)/C=C/[C@@H]1[C@@H](C/C=C\CCCC(=O)O)[C@@H](O)C[C@H]1O gave a remaining activity of 100%.
With NC(=S)N/N=C/c1ncccc1N the remaining activity was 99.1%.
NS(O)(O)Cc1noc2ccccc12 has a remaining activity of 101%.
For CN(C)CC(c1ccc(O)cc1)C1(O)CCCCC1 (stereo not shown), the remaining activity was 101%.
COc1cc2ncnc(Nc3ccc(Cl)cc3F)c2cc1OC has a remaining activity of 88.8%.
For N=C(N)Nc1ccc(C(=O)Oc2ccc3cc(C(=N)N)ccc3c2)cc1, the remaining activity was 105%.

Set 3
Target: Bromodomain-containing protein 4, BD1 (BRD4, Homo sapiens, UniProt O60885)
Observed: acetyl-histone H4 peptide binding
Technique: AlphaScreen displacement
Concentration: 50 µM
O=C(O)c1cc(NCc2cc(O)ccc2O)ccc1O has an inhibition of 16.1%.
Cc1nc(N)sc1-c1csc(Nc2ccc(Cl)cc2)n1 has an inhibition of 81.7%.
The inhibition of O=[N+]([O-])c1cnc(Nc2cccc(Cl)c2)nc1Nc1cccc(Cl)c1 is reported as 40.8%.
CN(c1ccccc1CNc1nc(Nc2ccc3c(c2)CC(=O)N3)ncc1C(F)(F)F)S(C)(=O)=O has an inhibition of 99.7%.
With O=C(CSc1ccc2nnc(-c3ccc(Cl)cc3)n2n1)NCC1CCCO1 (stereo not shown) the inhibition was 0.9%.
The inhibition of Nc1cc2ncnc(Nc3cccc(Br)c3)c2cc1N is reported as 64.2%.
CCOC(=O)CNC(=O)CSc1ccc2nnc(-c3cccc(F)c3)n2n1 has an inhibition of 12.4%.
Cn1cnc2c(NCc3ccccc3)nc(NCCO)nc21 has an inhibition of 16.4%.
CN(C)c1ncnc2nc[nH]c12 gave an inhibition of 2.05%.
COc1ccc(-c2[nH]c3ncccc3c2CN2CCCC2)cc1 gave an inhibition of 14.4%.
CCOc1cc(C=C(C#N)C(N)=O)cc(CSc2ccccc2)c1O has an inhibition of 24.3%.
The inhibition of O=c1[nH]cnc2sc(-c3ccccc3)cc12 is reported as 6.15%.
O=C1NC(=S)SC1=Cc1ccc(-c2ccccc2Cl)o1 has an inhibition of 26.4%.

Set 4
Target: Synaptic vesicular amine transporter (SLC18A2, Homo sapiens, UniProt Q05940)
UniProt Q05940, sequence (whole entry, looked up): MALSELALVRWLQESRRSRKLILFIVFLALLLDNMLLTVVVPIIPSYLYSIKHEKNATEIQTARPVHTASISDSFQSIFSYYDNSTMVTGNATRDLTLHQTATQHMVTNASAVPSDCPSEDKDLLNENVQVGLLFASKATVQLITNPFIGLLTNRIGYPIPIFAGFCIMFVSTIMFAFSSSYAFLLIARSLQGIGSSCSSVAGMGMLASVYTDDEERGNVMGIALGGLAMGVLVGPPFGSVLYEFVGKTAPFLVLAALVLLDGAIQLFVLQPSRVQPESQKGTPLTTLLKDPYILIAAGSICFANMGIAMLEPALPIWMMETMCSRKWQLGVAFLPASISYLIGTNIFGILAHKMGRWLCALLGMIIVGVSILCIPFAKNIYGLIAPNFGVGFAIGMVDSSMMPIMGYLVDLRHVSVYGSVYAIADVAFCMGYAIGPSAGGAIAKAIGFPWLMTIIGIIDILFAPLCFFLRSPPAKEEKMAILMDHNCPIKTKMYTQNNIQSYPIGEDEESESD
Action: inhibitor
Notes: literature data
CN1CCN2c3ncccc3Cc3ccccc3C2C1 (stereo not shown) has an IC50 of over 10 µM.
The IC50 of Cc1cnc(NC(=O)C2=C(O)c3ccccc3S(=O)(=O)N2C)s1 is reported as over 10 µM.
For CC(=O)c1c(C)c2cnc(Nc3ccc(N4CCNCC4)cn3)nc2n(C2CCCC2)c1=O, the IC50 was 9.2 µM.
For O=C(O[C@H]1CN2CCC1CC2)N1CCc2ccccc2[C@@H]1c1ccccc1, the IC50 was 5.7 µM.
The IC50 of CN(C)CCCN1c2ccccc2Sc2ccccc21 is reported as 7.17 µM.
For OCCN1CCN(CCCN2c3ccccc3Sc3ccc(Cl)cc32)CC1, the IC50 was 1.88 µM.
With CN(Cc1cnc2nc(N)nc(N)c2n1)c1ccc(C(=O)N[C@@H](CCC(=O)O)C(=O)O)cc1 the IC50 was over 10 µM.
For O=C(c1ccc(OCCN2CCCCC2)cc1)c1c(-c2ccc(O)cc2)sc2cc(O)ccc12, the IC50 was 0.127 µM.
Cc1c(O)cccc1C(=O)N[C@@H](CSc1ccccc1)[C@H](O)CN1C[C@H]2CCCC[C@H]2C[C@H]1C(=O)NC(C)(C)C gave an IC50 of 9.9 µM.

A few entries again (set 3):
The inhibition of O=[N+]([O-])c1cnc(Nc2cccc(Cl)c2)nc1Nc1cccc(Cl)c1 is reported as 40.8%.
CCOC(=O)CNC(=O)CSc1ccc2nnc(-c3cccc(F)c3)n2n1 has an inhibition of 12.4%.
Cn1cnc2c(NCc3ccccc3)nc(NCCO)nc21 has an inhibition of 16.4%.
CCOc1cc(C=C(C#N)C(N)=O)cc(CSc2ccccc2)c1O has an inhibition of 24.3%.
CN(c1ccccc1CNc1nc(Nc2ccc3c(c2)CC(=O)N3)ncc1C(F)(F)F)S(C)(=O)=O has an inhibition of 99.7%.
O=C1NC(=S)SC1=Cc1ccc(-c2ccccc2Cl)o1 has an inhibition of 26.4%.
O=C(O)c1cc(NCc2cc(O)ccc2O)ccc1O has an inhibition of 16.1%.
